Measurements pooled from the literature.
Each line is one published result; not all experiments were run side by side. “And” joins repeats or separate records; there may be more than shown. ± gives the spread as reported.
TDP1: Tyrosyl-DNA phosphodiesterase 1 (TDP1, Homo sapiens, UniProt Q9NUW8)
UniProt Q9NUW8, sequence (whole entry, looked up): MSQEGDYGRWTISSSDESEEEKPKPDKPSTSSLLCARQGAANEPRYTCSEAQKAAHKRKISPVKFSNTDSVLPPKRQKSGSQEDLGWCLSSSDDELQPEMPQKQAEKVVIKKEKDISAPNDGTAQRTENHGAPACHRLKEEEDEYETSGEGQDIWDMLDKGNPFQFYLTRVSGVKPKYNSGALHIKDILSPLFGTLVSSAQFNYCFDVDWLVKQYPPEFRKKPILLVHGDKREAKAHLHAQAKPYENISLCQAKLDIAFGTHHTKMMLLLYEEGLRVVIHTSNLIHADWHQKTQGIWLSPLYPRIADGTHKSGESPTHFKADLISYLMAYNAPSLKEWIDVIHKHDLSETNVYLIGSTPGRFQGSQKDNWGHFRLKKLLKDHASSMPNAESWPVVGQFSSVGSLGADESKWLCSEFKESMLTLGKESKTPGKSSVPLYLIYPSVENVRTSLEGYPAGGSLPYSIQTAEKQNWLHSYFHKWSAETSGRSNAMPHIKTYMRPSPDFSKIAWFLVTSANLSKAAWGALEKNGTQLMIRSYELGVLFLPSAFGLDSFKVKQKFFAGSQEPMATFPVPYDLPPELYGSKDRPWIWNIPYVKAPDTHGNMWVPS

With `O=C(Nc1cnccc1-c1ccc([18F])cc1)c1ccnc(NC(=O)C2CC2)c1` the mean SUV was 0.24 (ex vivo gamma counting; FVB/NJ mice, both sexes, brain stem; intravenous, 120 min, with: tariquidar 15 mg/kg iv).
For `CCCCN1C(=O)c2cccc3c(NCCCCN4CCOCC4)ccc(c23)C1=O`, the emission maximum was 526 nm (DMF).
With `CC(C)C[C@H](NC(=O)[C@H](CCCN)NC(=O)CNC(=O)[C@@H](NC(=O)[C@H](C)NC(=O)[C@@H]1CSCSC[C@H](NC(=O)CC[C@H](N)C(=O)O)C(=O)N[C@@H](CC(N)=O)C(=O)N[C@@H]([C@@H](C)O)C(=O)N[C@@H](C)C(=O)N[C@@H]([C@@H](C)O)C(=O)N1)[C@@H](C)O)C(=O)N[C@@H](C)C(=O)N[C@@H](CCC(=O)O)C(=O)N[C@@](C)(Cc1ccccc1)C(=O)N[C@@H](CC(C)C)C(=O)N[C@H](C(=O)N[C@@H](CCCNC(=N)N)C(=O)N[C@@H](CO)C(=O)N[C@@H](CO)C(=O)N[C@@H](CC(N)=O)C(=O)N(C)[C@@H](CC(N)=O)C(=O)N[C@@H](Cc1ccccc1)C(=O)NCC(=O)N1CCC[C@H]1C(=O)N[C@@H](CCCCNC(=O)CC[C@H](NC(=O)CC[C@H](NC(=O)CCCCCCCCCCCCCCCCCCC(=O)O)C(=O)O)C(=O)O)C(=O)N[C@@H](CC(C)C)C(=O)N1CCC[C@H]1C(=O)N1CCC[C@H]1C(=O)N[C@H](C(=O)N[C@@H](CCC(=O)O)C(=O)N[C@H](C(=O)NCC(=O)N[C@@H](CO)C(=O)N[C@@H](CC(N)=O)C(=O)N[C@H](C(=O)N[C@@H](Cc1ccc(O)cc1)C(N)=O)[C@@H](C)O)C(C)C)[C@@H](C)O)C(C)C` the Tmax was 132 h (human, plasma; subcutaneous, 0.12 mg, single dose, healthy volunteers).
The tumour-to-spleen ratio of `COc1cccc(OC)c1-c1cc(C(=O)NC2(C(=O)O)C3CC4CC(C3)CC2C4)nn1-c1ccc(C(=O)N(C)CCOCCN(C)C(=O)[C@H](CCCCNC(=O)[C@H](CC(C)C)NC(=O)C2OC2C(=O)O)NC(=O)CN2CCN(CC(=O)[O-])CCN(CC(=O)[O-])CCN(CC(=O)[O-])CC2)cc1C(C)C.[177Lu+3]` (mixture of isomers) is reported as 3.74 (mouse HT-29 xenograft; 24 h, biodistribution; baseline: tumour over spleen).
`O=C(Nc1cnccc1-c1ccc([18F])nc1)c1ccnc(NC(=O)C2CC2)c1` has an SUV of 0.418 (ex vivo gamma counting; FVB/NJ mice, both sexes, bone; intravenous, 120 min, mean, P-gp inhibitor pretreatment, with: tariquidar 15 mg/kg iv).
`Cc1ccc(CN2C(=O)/C(=N\c3ccc(Cl)cc3Br)c3ccccc32)cc1` gave an MCH of 14.4 ± 0.4 pg (mouse, blood; 100 mg/kg).
The plasma concentration of `C[C@]12C[C@H](c3ccc(S(C)(=O)=O)cc3)C3=C4CCC(=O)C=C4CC[C@H]3[C@@H]1CC[C@@]2(O)C(F)(F)C(F)(F)F` is reported as 27 ng/mL (item: compound (parent); healthy human volunteers, pooled plasma; oral, 5 mg daily, day 28, 3 h).
For `CCC(CC)CNC(=N)NC(=N)NCCCCCCNC(=N)NC(=N)NCC(CC)CC`, the microsomal CLint was 16.4 µL/min/mg (metabolic stability; monkey, liver microsomes; 2 µM).
`CN[C@H]1CC[C@H]([C@@]2(C)Oc3c(Cl)cc(C(=O)NCc4c(C)cc(C)[nH]c4=O)c(C)c3O2)CC1` gave a fecal excretion of 2.7% and 0.8% and 1.5% and 1.1% (radiochromatography; human, feces; oral, 200 mg; baseline: dose).
With `COc1cccc(OC)c1-c1cc(C(=O)NC2(C(=O)O)C3CC4CC(C3)CC2C4)nn1-c1ccc(C(=O)NCCNC(=O)[C@H](CCCCNC(=O)[C@H](CC(C)C)NC(=O)C2OC2C(=O)O)NC(=O)CN2CCN(CC(=O)[O-])CCN(CC(=O)[O-])CCN(CC(=O)[O-])CC2)cc1C(C)C.[177Lu+3]` (mixture of isomers) the tumour-to-spleen ratio was 9.82 (mouse HT-29 xenograft; 4 h, biodistribution; baseline: tumour over spleen).
`COc1ccnc(C(=O)N[C@H]2COC(=O)[C@H](Cc3ccccc3)[C@@H](OC(=O)C(C)C)[C@H](C)OC2=O)c1O` has a Freundlich KF of 22.5 mL/g (UK acid sand A1, OC 0.8%; pH 3.9).
`CC(C)(c1cc(Br)c(O)c(Br)c1)c1cc(Br)c(O)c(Br)c1`: “dose fraction in skim milk” 46.1% (whole cow milk; 2000 nM nominal).
For `CC(C)(O)c1ncc([S@](N)(=O)=NC(=O)Nc2c3c(cc4c2CCC4)CCC3)s1`, “subjects with TEAEs” read 17% (item: musculoskeletal-connective tissue disorders; healthy human volunteers; oral, 30 mg single dose, crystalline suspension).
The concentration of `C=CC(=O)N1CCCC(n2c(=O)c3ncccc3n(Cc3ccc(Oc4ccccc4)cc3)c2=O)C1` (centres unmarked) is reported as 29200 ng/mL (male BALB/c mouse, plasma; intraperitoneal, 200 mg/kg, 5 min).
`CCC(CC)n1c(Cc2cccs2)nc2cc(C(=O)NC(CC(=O)O)CC(C)C)ccc21` (centres unmarked): “cardiomyocyte surface area” “increased” (normal mice; dose not given, 2 weeks).
The tracer uptake of `CC(=O)N([O-])CCCCCNC(=O)CCC(=O)N([O-])CCCCCNC(=O)CCC(=O)N([O-])CCCCCN.[89Zr+4]` is reported as 1.01 %ID/g (mouse, pancreas; 4 h).
`O=C(c1ccccc1)N1C(c2ccc(OCC3CCN(CCCF)C3)cc2)c2ccc(O)cc2CC12CC2` (centres unmarked) gave a Cmax of 5050 ng/mL (C57BL/6J mouse, plasma; intraperitoneal, 25 mg/kg, group mean).
With `CCCC[C@H](NC(=O)CNC(=O)CNC(=O)[C@H](CCCCNC(=O)[C@H](CC(=O)O)NC(=O)C(C)c1ccc(CC(C)C)cc1)NC(=O)CN1CCN(CC(=O)O)CCN(CC(=O)O)CCN(CC(=O)O)CC1)C(=O)N[C@H]1CC(=O)NCCCC[C@@H](C(N)=O)NC(=O)[C@H](Cc2c[nH]c3ccccc23)NC(=O)[C@H](CCCNC(=N)N)NC(=O)[C@@H](Cc2ccccc2)NC(=O)[C@H](Cc2c[nH]cn2)NC1=O` (some centres unmarked) [lutetium-177 labelled] the excretion was 43.7 ± 2.68% (C57 mouse, urine; intravenous, 0.037 MBq, 0.5 h).
For `CN(C)C(=O)c1cccc(N2Cc3cn(Cc4ccc(F)cc4Cl)nc3C2)c1`, the half-life was 0.617 h (metabolic stability; rat, liver microsomes).
The plasma concentration of `C=C[C@]1(C)C[C@@H](OC(=O)CSc2ccc(NC(=O)c3ccco3)cc2)[C@]2(C)[C@H](C)CC[C@]3(CCC(=O)[C@H]32)[C@@H](C)[C@@H]1O` is reported as 2320 ng/mL and 1700 ng/mL and 3220 ng/mL and 1770 ng/mL and 1730 ng/mL and 2620 ng/mL and 3260 ng/mL and 2980 ng/mL (Mycoplasma gallisepticum-infected chickens, plasma; intramuscular, 40 mg/kg, 2 h).
For `[123I]c1ccc2nc(-c3ccc(-n4ccnn4)nc3)cn2c1`, the tracer uptake was 0.665 %ID/g (male Wistar rat, stomach; intravenous, 4 MBq, 5 min).
The inhibition of `O=C(O)c1ccc(Nc2c(-c3ccccc3)nc3ccc(CON=Cc4cc5c(cc4[N+](=O)[O-])OCCO5)cn23)cc1` (mixture of isomers) is reported as -1.1% (TDP1; enzyme activity, inhibitor; 100 µM, unpurified compound).
The solubility of `O=S1(=O)CC2CCCCC2CS1` (centres unmarked) is reported as 73 mM (phase solubility, NMR; water; 25 °C, with: hydroxypropyl-β-cyclodextrin 631 mM).
`Cc1nc(N)nc2c1C(=O)N[C@@H](c1ccc(F)cc1-c1cccc(O[11CH3])n1)C2` has a tracer uptake of 2.7 ± 0.4 %ID (ex vivo biodistribution; mice, MDA-MB-231 subcutaneous xenograft, kidneys; 60 min post-injection, baseline, vehicle pre-treatment).
`CCCCN1C(=O)c2cccc3c(NCCN4CCOCC4)ccc(c23)C1=O` gave an emission maximum of 535 nm (ethylene glycol).
`COc1cccc(OC)c1-c1cc(C(=O)NC2(C(=O)O)C3CC4CC(C3)CC2C4)nn1-c1ccc(C(=O)N(C)CCOCCOCCN(C)C(=O)[C@H](CCCCNC(=O)[C@H](CC(C)C)NC(=O)C2OC2C(=O)O)NC(=O)CN2CCN(CC(=O)[O-])CCN(CC(=O)[O-])CCN(CC(=O)[O-])CC2)cc1C(C)C.[177Lu+3]` (mixture of isomers) has a tumour-to-spleen ratio of 2.69 (mouse HT-29 xenograft; 24 h, biodistribution; baseline: tumour over spleen).
For `C=CC(=O)Nc1cc(Nc2nccc(-c3cn(C)c4ccccc34)n2)c(OC)cc1N(C)CCNC`, the remaining compound was 90.3% (human, dried blood spots; 72 h, -80 °C, high QC level).
For `CN(C)C(=O)c1cccc(N2Cc3cn(CC4CCCCC4)nc3C2)c1`, the half-life was 0.0233 h (metabolic stability; rat, liver microsomes).
`CC[C@H](C)[C@@H]1NC(=O)[C@H](Cc2ccc(O)cc2)NC(=O)CSC[C@@H](C(N)=O)NC(=O)[C@H](CC(N)=O)NC(=O)[C@H](Cc2cnc[nH]2)NC(=O)[C@H](Cc2ccc(O)cc2)NC(=O)[C@H](CC(=O)O)NC(=O)[C@H](Cc2ccc(O)cc2)NC(=O)[C@H](CC(C)C)NC(=O)[C@H](CCCNC(=N)N)NC1=O` has a membrane retention of < -0.04% (PAMPA; 200 µM, 5 h, pH 7.4).
`C/C(N)=N/C(=N\S(=O)(=O)c1ccc(C(F)(F)F)cc1)N1C[C@H](c2ccccc2)C(c2ccc(Cl)cc2)=N1` has an AUC(0-inf) of 18400 ng·h/mL (cynomolgus monkey, female, plasma; intravenous, 2 mg/kg).
For `CCCCN1C(=O)c2cccc3c(NCCCCCN4CCOCC4)ccc(c23)C1=O`, the emission maximum was 520 nm (acetonitrile).
For `Cc1cc(-c2ccc(C(=O)[C@@H]3CCCC[C@H]3C(=O)Nc3cnn4c3C(=O)NCC4)cc2)[nH]n1`, “radioactivity recovery per interval” read 0.16% and 0.2% (human, faeces; oral, 200 mg, 240-264 h; baseline: dose).
`Clc1cc2nc(c1)CNCc1cc(Cl)cc(n1)CNC2`: “sum of log protonation constants” 13.9 (potentiometry).
`Cc1cnc2nc1Nc1cccc(c1)COC/C=C/COCc1cc(ccc1OCCN1CCOCC1)N2` gave a body weight of 17.9 g and 19 g and 17.8 g and 19.3 g and 18.3 g and 19.7 g (BALB/c mice, rhEPO-induced polycythemia; 75 mg/kg, day 2).
`CCCCN1C(=O)c2cccc3c(NCCCCCCCCN4CCOCC4)ccc(c23)C1=O` — result for “fluorescence quantum yield”: 0.23 (water; pH 6.0).
`O=C(O)CCCOc1ccc([18F])cc1-c1cc(-c2ccccc2C(F)(F)F)n(-c2ccccc2)n1` gave a tissue uptake of 6.36 ± 1.43 %ID/g (mouse, large intestine; intravenous, dose not given, 360 min).
For `O=c1c2ccccc2[se]n1CCCCCCn1[se]c2ccccc2c1=O`, the solubility was 1280 ± 40 µg/mL (shake-flask, RP-HPLC; ethanol; 24 h, 25 °C).
For `O=S(=O)(NCc1ccncc1)c1ccc(C2CCCCC2)cc1`, “open field speed change” read 4 ± 1 cm/s (CK-p25 mouse; 0.3 mg/kg; baseline: vehicle).
With `Cc1cc(NC(=O)[C@H](O)c2cc(F)cc(F)c2)ccc1-c1cnc(N)c(C(=O)NC(C)C)c1` the half-life was 2.6 h (female nude mouse, plasma; oral, 100 mg/kg, single dose).
`CCCCN1C(=O)c2cccc3c(NCCCCCCCCCCN4CCOCC4)ccc(c23)C1=O` has an emission maximum of 558 nm (water; pH 6.0).
For `Cc1ccc(OCC(=O)N(Cc2cccs2)c2ccn[nH]2)cc1`, the remaining compound was 47.8% (pooled dog liver microsomes; 10 µM, 20 min; baseline: time 0).
For `C=C(NC(=O)c1csc(-c2nc3c(cc2O)-c2nc(cs2)C(=O)NC(C(C)O)C(=O)NC(=C(C)OC)c2nc(cs2)C(=O)NC2c4nc(cs4)C(=O)NC(COC(=O)c4c5c6c(cccc6n4O)COC(=O)C(OC4CC(C)(O)C(N(C)C)C(C)O4)C2OC5)c2nc-3cs2)n1)C(N)=O` (centres unmarked), the Vz/F was 1.34 L/kg (cynomolgus monkey, male, plasma; intravenous infusion, 3 mg/kg, multiple doses, day 7).
For `Cn1c(C=NOCc2ccc(-c3nc4cc(-c5ccccc5)ccn4c3Nc3ccc(C(=O)O)cc3)cc2)nc2cc([N+](=O)[O-])ccc21`, the inhibition was 96.3% (TDP1; enzyme activity, inhibitor; 100 µM, unpurified oxime).
`COc1ccc(CNc2nc([C@H]3CC[C@H](C(=O)O)CC3)nc3sc4ccccc4c23)cc1Cl` gave a body weight of 22.1 g and 21.5 g and 19.2 g and 21.6 g (NSG mice; dose not given, day 4).

Repeated from above:
`CN[C@H]1CC[C@H]([C@@]2(C)Oc3c(Cl)cc(C(=O)NCc4c(C)cc(C)[nH]c4=O)c(C)c3O2)CC1` gave a fecal excretion of 2.7% and 0.8% and 1.5% and 1.1% (radiochromatography; human, feces; oral, 200 mg; baseline: dose).
With `COc1cccc(OC)c1-c1cc(C(=O)NC2(C(=O)O)C3CC4CC(C3)CC2C4)nn1-c1ccc(C(=O)NCCNC(=O)[C@H](CCCCNC(=O)[C@H](CC(C)C)NC(=O)C2OC2C(=O)O)NC(=O)CN2CCN(CC(=O)[O-])CCN(CC(=O)[O-])CCN(CC(=O)[O-])CC2)cc1C(C)C.[177Lu+3]` (mixture of isomers) the tumour-to-spleen ratio was 9.82 (mouse HT-29 xenograft; 4 h, biodistribution; baseline: tumour over spleen).
`COc1ccnc(C(=O)N[C@H]2COC(=O)[C@H](Cc3ccccc3)[C@@H](OC(=O)C(C)C)[C@H](C)OC2=O)c1O` has a Freundlich KF of 22.5 mL/g (UK acid sand A1, OC 0.8%; pH 3.9).
